Results of several laboratories.
Parts stem from different laboratories: compare values within a part only. Substitutions count along the parent as printed.

Sample 1
Target: Sal-like protein 4, full length isoform A (SALL4, Homo sapiens, UniProt Q9UJQ4, residues 1-1053)
UniProt Q9UJQ4, sequence (whole entry, looked up): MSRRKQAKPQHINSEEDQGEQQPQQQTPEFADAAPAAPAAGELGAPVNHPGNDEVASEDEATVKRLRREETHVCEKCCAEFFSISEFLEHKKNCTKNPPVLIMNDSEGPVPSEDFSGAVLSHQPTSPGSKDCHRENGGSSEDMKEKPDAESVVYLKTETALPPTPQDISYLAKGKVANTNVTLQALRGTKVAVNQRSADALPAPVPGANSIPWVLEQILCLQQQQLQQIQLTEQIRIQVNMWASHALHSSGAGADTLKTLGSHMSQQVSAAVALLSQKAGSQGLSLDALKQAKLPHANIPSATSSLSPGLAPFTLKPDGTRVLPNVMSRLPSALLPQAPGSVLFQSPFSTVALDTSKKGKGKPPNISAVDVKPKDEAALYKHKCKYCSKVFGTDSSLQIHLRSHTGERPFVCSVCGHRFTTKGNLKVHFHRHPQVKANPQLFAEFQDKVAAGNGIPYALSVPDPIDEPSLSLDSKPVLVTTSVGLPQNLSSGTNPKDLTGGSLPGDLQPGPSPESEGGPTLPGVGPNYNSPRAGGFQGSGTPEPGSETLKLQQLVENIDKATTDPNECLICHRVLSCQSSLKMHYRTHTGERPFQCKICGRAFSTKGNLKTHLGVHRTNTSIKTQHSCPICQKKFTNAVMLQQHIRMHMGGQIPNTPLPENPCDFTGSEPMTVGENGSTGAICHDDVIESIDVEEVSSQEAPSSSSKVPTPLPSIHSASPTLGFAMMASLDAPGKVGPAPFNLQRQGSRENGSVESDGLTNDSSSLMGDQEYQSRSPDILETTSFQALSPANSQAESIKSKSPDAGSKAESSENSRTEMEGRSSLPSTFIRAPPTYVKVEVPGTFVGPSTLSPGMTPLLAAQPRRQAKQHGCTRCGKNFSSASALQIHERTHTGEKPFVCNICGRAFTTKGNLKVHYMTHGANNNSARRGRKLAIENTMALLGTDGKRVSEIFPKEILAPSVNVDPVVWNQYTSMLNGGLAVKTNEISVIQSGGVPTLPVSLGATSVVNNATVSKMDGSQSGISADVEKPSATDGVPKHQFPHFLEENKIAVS
Technique: universal PBM
Form: double-stranded DNA, one strand shown
Matrix: in vitro
Tested at: 600 nM
Notes: 8-mer, flanks averaged, mean of replicates
Direction: higher = stronger binding
`GCTATGAA` has an E-score of 0.161.
`GCGTGAAA` has an E-score of 0.0914.
With `CGCGTCTC` the E-score was -0.134.
`ATGTGGTG` has an E-score of 0.0182.
`AGTCTATA` has an E-score of 0.244.
The E-score of `ACCCCCTG` is reported as -0.267.
`GAGTCTGA` has an E-score of -0.165.
The E-score of `CCACGGAA` is reported as -0.107.
The E-score of `CAGCCAAA` is reported as 0.0372.
`ACAACACC` gave an E-score of 0.104.
With `AACACCTT` the E-score was -0.01.
The E-score of `ATGGCGGA` is reported as -0.168.
`ATACGGTC` gave an E-score of -0.0366.
`CACGTGGG` has an E-score of -0.322.
The E-score of `ATGAAGTA` is reported as 0.239.
The E-score of `AGAGTCCT` is reported as -0.194.
The E-score of `CGACCCCA` is reported as -0.165.
The E-score of `ACACTCCG` is reported as -0.185.
`ATGAGTAA` has an E-score of 0.192.
The E-score of `CCGCTCAC` is reported as -0.338.
`CGACCGTC` has an E-score of -0.308.
`GATTTACA` has an E-score of 0.208.
The E-score of `TCCTAACA` is reported as 0.188.
`CCCTAGGG` has an E-score of -0.3.
`CCTCCTTC` has an E-score of -0.21.

Sample 2
Target: CCNE1, cyclin fold, Cln2 fusion (human)
Technique: yeast growth competition, sequencing
Matrix: yeast
Notes: strong parent motif
Relative to: not given
Direction: higher = stronger binding
Starting sequence: E2F1 docking peptide (human); PPVKRRLDLETDH; partner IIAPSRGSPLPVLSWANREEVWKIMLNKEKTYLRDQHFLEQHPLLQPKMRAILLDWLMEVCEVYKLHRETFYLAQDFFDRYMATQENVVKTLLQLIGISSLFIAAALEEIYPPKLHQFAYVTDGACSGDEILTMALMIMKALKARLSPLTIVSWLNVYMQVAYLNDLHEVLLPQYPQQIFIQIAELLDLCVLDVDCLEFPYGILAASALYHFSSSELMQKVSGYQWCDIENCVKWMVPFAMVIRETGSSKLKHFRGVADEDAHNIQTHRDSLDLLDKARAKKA
`D12S` — result for “normalised enrichment score”: 1.84.
`D12E` — result for “normalised enrichment score”: 1.91.
Under “normalised enrichment score”, `E10P` is recorded as 0.79.
Under “normalised enrichment score”, `R5A` is recorded as -0.0374.
`K4H` — result for “normalised enrichment score”: 0.533.
Under “normalised enrichment score”, `R6V` is recorded as 1.76.
For `P2G`, “normalised enrichment score” read 1.83.
Under “normalised enrichment score”, `H13E` is recorded as 2.35.
For `P1L`, “normalised enrichment score” read 3.16.
`T11K`: “normalised enrichment score” 0.508.
Under “normalised enrichment score”, `L7P` is recorded as 0.339.
For `D12W`, “normalised enrichment score” read 1.42.
For `K4V`, “normalised enrichment score” read 2.9.
`R6S` — result for “normalised enrichment score”: -0.226.

Sample 3
Target: RING finger protein unkempt homolog, zinc fingers 1-6, GST-SBP tag (UNK, Homo sapiens, UniProt Q9C0B0, residues 30-357)
Technique: RNA Bind-n-Seq
Form: RNA
Matrix: in vitro
Tested at: not given
Notes: RNA with constant flanks, human and mouse sites, ends assumed
Relative to: input RNA pool
Direction: higher = stronger binding
Construct (chain): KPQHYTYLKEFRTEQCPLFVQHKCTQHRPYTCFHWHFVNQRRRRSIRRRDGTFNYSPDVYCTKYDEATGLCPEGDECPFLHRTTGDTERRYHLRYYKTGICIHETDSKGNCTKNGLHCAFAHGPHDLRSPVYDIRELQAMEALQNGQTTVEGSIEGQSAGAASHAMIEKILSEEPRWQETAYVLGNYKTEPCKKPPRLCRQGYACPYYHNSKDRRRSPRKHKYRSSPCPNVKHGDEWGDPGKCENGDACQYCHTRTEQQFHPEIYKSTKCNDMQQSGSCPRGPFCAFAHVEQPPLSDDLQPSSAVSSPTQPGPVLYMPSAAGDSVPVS
`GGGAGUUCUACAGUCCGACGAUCGGUUUCAAUGAAACAGAUGAUUUGAAGAGAGCUGAGAGUAUGCUUCAACAAGCAGAUAAAUUAGGUUGCAGACAGUUUGUUACCCCUGCUGAUGUUGUCAGUGGAAACCCCAAACUCAACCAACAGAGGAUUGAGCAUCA` gave a bound/input enrichment of 0.119 ratio.
`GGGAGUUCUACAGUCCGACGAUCAUUGCUAAUGUCCAGAGCGGGGCCAAUUCGUUGCCUUGCUCAGAAUUGCCCUGUGACCUUUCUUUCAAGAAUACAUAUCCUAAAGAUGAAGCACAUGUCUCAGAUGAAUUCUCCAAAAGUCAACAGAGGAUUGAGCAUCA` gave a bound/input enrichment of 0.0921 ratio.
The bound/input enrichment of `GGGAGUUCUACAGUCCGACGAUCAAAAAGGAGAAACCUCUUCCAAGACUUAAUAUCCAUUCUGGAUUCUGGAUUUUGGCAUCCAUUGUUGUGACCUAUUAUGUUGACUUCUUUAAAACCCUUAAAGAAAACUUCCACACUAGCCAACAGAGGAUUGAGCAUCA` is reported as 0.442 ratio.
The bound/input enrichment of `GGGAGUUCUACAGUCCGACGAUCAAGGAAUUAUAUAUUCAGCAUGCUAAAGAGGACGAAACUCGUUAUCAUAAUGAAAUGAAGUCUUGGGAAGAACAAAUGAUUGAAGUUGGACGAAAGGAUCUUCUACGUCGCACAAUAAAGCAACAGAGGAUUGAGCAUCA` is reported as 0.327 ratio.
`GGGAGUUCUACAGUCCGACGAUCGCAUCCACUGCUACAGCUGAACAGUUUUUUCAGAAGCUGAGAAAUAAACAUGAAUUUACUAUUUUGGUGACCCUAAAACAGACCCACUUAAAUUCAGGAGUUAUUCUCUCAAUUCACCACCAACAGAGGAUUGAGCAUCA` has a bound/input enrichment of 0.166 ratio.
`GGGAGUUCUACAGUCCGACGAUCGUGAAGUUUGGGGAAAGCAUUGAGGACUUGCACACCUGCCGUCUCUUAAUUAAACAGGACAUUCCUGCAGGACUUUAUGUGGAUCCGUAUGAGUUGGCUUCAUUACGAGAGAGAAACAUACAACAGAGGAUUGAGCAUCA` gave a bound/input enrichment of 0.368 ratio.
The bound/input enrichment of `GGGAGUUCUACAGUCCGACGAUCCUUAGAGAGCUUGAAGCUAAAGCCUACAAACAAAUUGAGGCCUGUGGUGGGAACCCUUCACUAGUGGCUUUAGUCAAGCACUUAAGUAAGAUGUUCACAGAAGAAAAUAAAUAAUACUAUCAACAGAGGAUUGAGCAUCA` is reported as 0.799 ratio.
`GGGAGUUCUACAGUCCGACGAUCGGCAAAGGUCGAUUUGGAGAAGUUUGGAGAGGAAAGUGGCGGGGAGAAGAAGUUGCUGUUAAGAUAUUCUCCUCUAGAGAAGAACGUUCGUGGUUCCGUGAGGCAGAGAUUUAUCAAACUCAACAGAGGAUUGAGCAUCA` has a bound/input enrichment of 0.571 ratio.

Sample 4
Target: Interferon regulatory factor 5, full length, phosphomimetic (IRF5, Homo sapiens, UniProt Q13568-2, residues 1-514, K96S/S451D/S453D/S456D/S462D)
Technique: protein-binding microarray
Form: double-stranded DNA, one strand shown
Matrix: in vitro
Tested at: 250 nM
Notes: 60-bp whole probe
Together with: salmon DNA 0.4 mg/ml
Relative to: random background probes
Direction: higher = stronger binding
Constant ends, left off below: GCCTAGCAC … GTCTTGATTCGCTTGACGCTGCTG
With `TTAGGTCTCGGACTGAGTTAGTGCTAG` the log fluorescence was -0.195 z-score.
With `TCACATACTAGTTTCCAACTGTGCTAG` the log fluorescence was 0.471 z-score.
For `GACGGGATCGACACTGGGGACGTGCTA`, the log fluorescence was -0.28 z-score.
`TACTTTCTATCTCTGTTTTTGTGCTAG` has a log fluorescence of 7.4 z-score.
`ACCATTCTCGGGACTCACCTGGTGCTA` gave a log fluorescence of 0.206 z-score.
`TTAGAACTGAGTCTCGGTTAGTGCTAG` has a log fluorescence of 0.975 z-score.
With `CAGCATGCCTGTCCCTGGGTGTGCTAG` the log fluorescence was -0.516 z-score.
`GACCGTTTCGACACTGGGGACGTGCTA` has a log fluorescence of 3.51 z-score.
With `GACGGACTGCTACTCCTGACGTGCTAG` the log fluorescence was -0.333 z-score.
`TTAGATTTTAGTATCGATTAGTGCTAG` gave a log fluorescence of 8.15 z-score.
The log fluorescence of `GACAATATCGGGTATCGAGACGTGCTA` is reported as 3.95 z-score.
For `TTAGGTTTCGGTATCGGTAAGTGCTAG`, the log fluorescence was 10.9 z-score.
With `GACGGTCTCGGTATCGGGACGTGCTAG` the log fluorescence was 1.04 z-score.
`TTAGAACTGGGGTTTCGATCAGTGCTA` gave a log fluorescence of 5.1 z-score.
For `TTAGGTTTAGGGTTTCGGTTAGTGCTA`, the log fluorescence was 6.05 z-score.
`GACGGTTTCGACACTGGCGACGTGCTA` has a log fluorescence of 4.82 z-score.
The log fluorescence of `AACGGTTTCGGTCTCGGGACGTGCTAG` is reported as 10.2 z-score.
With `TTAGAATTCGGGTATCGATTAGTGCTA` the log fluorescence was 4.19 z-score.
`TCATCTTTGCTTCACCCACTGTGCTAG` gave a log fluorescence of 0.684 z-score.

Sample 5
Target: ABI1, truncated, D143A, DHFR fusion (Arabidopsis thaliana)
Technique: DHFR PCA, deep sequencing
Matrix: yeast
Notes: methotrexate growth selection, single substitutions
Together with: (+)-ABA 200 µM
Relative to: wild-type fitted maximum
Direction: higher = stronger binding
Starting sequence: PYL1, truncated, DHFR fusion (Arabidopsis thaliana); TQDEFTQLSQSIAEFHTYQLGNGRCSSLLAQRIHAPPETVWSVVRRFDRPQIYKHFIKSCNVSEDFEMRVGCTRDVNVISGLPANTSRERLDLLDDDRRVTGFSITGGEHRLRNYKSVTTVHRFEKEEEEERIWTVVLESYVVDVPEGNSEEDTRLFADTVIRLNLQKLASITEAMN; partner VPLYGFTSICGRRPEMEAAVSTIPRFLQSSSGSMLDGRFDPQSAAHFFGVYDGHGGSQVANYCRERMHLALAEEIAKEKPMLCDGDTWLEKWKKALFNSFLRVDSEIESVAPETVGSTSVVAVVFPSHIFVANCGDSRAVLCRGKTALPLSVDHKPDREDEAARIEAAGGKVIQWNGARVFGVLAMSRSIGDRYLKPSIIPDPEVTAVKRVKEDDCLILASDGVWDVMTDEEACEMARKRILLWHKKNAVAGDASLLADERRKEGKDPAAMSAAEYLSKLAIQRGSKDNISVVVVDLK
`T173F`: “relative binding score” 84%.
`R155C`: “relative binding score” 90.7%.
Under “relative binding score”, `E152C` is recorded as 89.4%.
Under “relative binding score”, `E4H` is recorded as 88.8%.
`R24G` — result for “relative binding score”: 80.2%.
Under “relative binding score”, `R155H` is recorded as 72%.
For `Q31F`, “relative binding score” read 46.5%.
For `G21H`, “relative binding score” read 97.5%.
For `E125A`, “relative binding score” read 101%.
Under “relative binding score”, `T119G` is recorded as -8.2%.
For `D65K`, “relative binding score” read 103%.
Under “relative binding score”, `S59A` is recorded as 97.8%.
Under “relative binding score”, `Y141L` is recorded as -6.78%.
`H110W` — result for “relative binding score”: 17.5%.
`T119Y`: “relative binding score” -3.12%.

A few entries again (sample 2):
Under “normalised enrichment score”, `R5A` is recorded as -0.0374.
`K4H` — result for “normalised enrichment score”: 0.533.
Under “normalised enrichment score”, `R6V` is recorded as 1.76.
For `P2G`, “normalised enrichment score” read 1.83.
Under “normalised enrichment score”, `H13E` is recorded as 2.35.
For `P1L`, “normalised enrichment score” read 3.16.
`T11K`: “normalised enrichment score” 0.508.
Under “normalised enrichment score”, `L7P` is recorded as 0.339.
For `D12W`, “normalised enrichment score” read 1.42.
